# Published values from different studies.
# Every numbered part comes from another study and shows a few of its results, in no order.

# Study 1
# Molecule: PhoQ, residues 284 288 289 292 302 303 SACGEM
# Method: Sort-seq
# Item: YFP reporter
# Matrix: E. coli
# Notes: PhoQ-PhoP variant library
# Added: 10 µM Mg2+
# Relative to: high Mg2+ state
# Direction: higher = stronger signaling
target,fold induction
"PhoP, residues 12 14 15 18 19 VHTVL (Escherichia coli, UniProt P23836)",6.26
"PhoP, residues 12 14 15 18 19 ICWRQ (Escherichia coli, UniProt P23836)",7.2
"PhoP, residues 12 14 15 18 19 TQCLL (Escherichia coli, UniProt P23836)",0.948

# Study 2
# Target: Sal-like protein 4, full length isoform B (SALL4, Homo sapiens, UniProt Q9UJQ4-2, residues 1-616)
# Method: universal PBM
# Form: double-stranded DNA, one strand shown
# Matrix: in vitro
# Concentration: not given
# Notes: 8-mer, flanks averaged, mean of replicates
# Direction: higher = stronger binding
Strand,E-score
CTCTACAG,-0.074
ACGGTTCG,-0.16
AACACCCT,-0.106
CGTACTGC,0.0465
CCGTGCGA,-0.0486
ACTCTCGG,-0.155
GAAAAGTC,0.0203
CGCGAGCG,-0.269

# Study 3
# Target: Protein C-ets-1 (ETS1, Homo sapiens, UniProt P14921, residues 1-441, K379A, full length assumed)
# Method: protein-binding microarray
# Form: double-stranded DNA, one strand shown
# Matrix: in vitro
# Concentration: not given
# Notes: k-mer, scored over probes, only values ≥0.25
# Direction: higher = stronger binding
# Target sequence (chain): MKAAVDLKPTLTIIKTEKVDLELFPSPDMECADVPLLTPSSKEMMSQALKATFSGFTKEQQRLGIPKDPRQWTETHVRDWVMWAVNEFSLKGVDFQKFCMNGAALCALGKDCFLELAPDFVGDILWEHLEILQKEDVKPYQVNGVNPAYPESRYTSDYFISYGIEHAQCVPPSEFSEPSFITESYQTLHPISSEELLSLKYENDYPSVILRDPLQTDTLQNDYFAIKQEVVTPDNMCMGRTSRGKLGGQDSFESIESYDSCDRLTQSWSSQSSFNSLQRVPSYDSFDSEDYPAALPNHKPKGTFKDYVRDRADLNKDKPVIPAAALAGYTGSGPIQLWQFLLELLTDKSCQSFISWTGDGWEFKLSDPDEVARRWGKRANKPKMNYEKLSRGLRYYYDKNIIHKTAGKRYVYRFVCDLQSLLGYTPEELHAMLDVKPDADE
Strand,E-score
ACATTATG,0.304
CGGTGACA,0.269
CGCCCACC,0.273
ACCGTCAC,0.297
AATACAAG,0.265
ACGCAACC,0.278
ATACAACC,0.257
CGACGGTC,0.328

# Study 4
# Target: Ras GTPase-activating protein-binding protein 1, full length (G3BP1, Homo sapiens, UniProt Q13283)
# UniProt Q13283, sequence (whole entry, looked up): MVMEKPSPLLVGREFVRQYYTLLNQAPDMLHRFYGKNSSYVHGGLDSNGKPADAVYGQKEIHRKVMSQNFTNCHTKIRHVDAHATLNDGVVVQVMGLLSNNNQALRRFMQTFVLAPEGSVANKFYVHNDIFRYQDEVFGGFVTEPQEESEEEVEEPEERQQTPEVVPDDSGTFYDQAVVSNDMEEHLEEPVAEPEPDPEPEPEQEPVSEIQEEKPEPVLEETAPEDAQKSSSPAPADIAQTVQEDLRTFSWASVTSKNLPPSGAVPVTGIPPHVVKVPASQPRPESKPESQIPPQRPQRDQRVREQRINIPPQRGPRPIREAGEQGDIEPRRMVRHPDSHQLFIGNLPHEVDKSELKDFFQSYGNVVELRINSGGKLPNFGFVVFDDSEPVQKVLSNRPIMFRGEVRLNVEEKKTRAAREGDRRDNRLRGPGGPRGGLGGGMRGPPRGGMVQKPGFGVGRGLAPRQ
# Method: RNA Bind-n-Seq
# Form: RNA
# Matrix: in vitro
# Concentration: 200 nM
# Notes: whole 134-nt RNA, ends assumed
# Added: 150 mM LiCl
# Relative to: input library
# Direction: higher = stronger binding
# All molecules: 7-deaza-guanosine replaces G
# Constant ends, left off below: GGGAGUUCUACAGUCCGACGAUC … UGGAAUUCUCGGGUGUCAAGG
Strand,log2 enrichment
ACCAUGCAGGUGGGCAUCUUUGGGAAGUGGGGCAAGGGGGGGAUAGGGAGGGGGGUAACACUUUGGGAACAGGUGGUCACAGGUCGUUUC,-0.161
ACCAUGCAGGUGGGCAUCUUUGGGAAGUGGGGCAAGGGGGGGAUAGGGAGGGGGGUGACACUUUGGGAACAGGUGGUCCCAGGUCGUUUC,0.149
UCCUGUGCUACACAUCGUAUGUACCGAAUCAAAUUUUUUUAAACCCCCCCAAACCCAAAAAAGUAUUAUGUUACGCCGUUCGGAUCUGCA,1.3
GUCCUGUGCUACACAUCGUAUGUACCGAAUCGGAAAAAAGGGAAAAAAGGGAAAAAAGGAAAGUAUUAUGUUACGCCGUUCGGAUCUGCA,-0.511
AGUCCUGUGCUACACAUCGUAUGUACCGAAUCGGGGUUUUGGGGUUUUGGUUUUGGGGAAAGUAUUAUGUUACGCCGUUCGGAUCUGCAC,-0.404

# Some of these lines once more (study 2):
Strand,E-score
AACACCCT,-0.106
CGTACTGC,0.0465
CCGTGCGA,-0.0486
